Measured values pooled from the literature.
Each line is one published result; not all experiments were run side by side. “And” joins repeats or separate records; there may be more than shown. Numbers after ± are the reported error.

CCC(=O)N[C@@H](C)C(=O)OCC(=O)N[C@@H](C)C(=O)O — chain scission rate constant (water; pH 6, 65 °C): 0.0235 h⁻¹
COc1ccc(C(=O)CCc2cc(C(CCc3ccc(O)cc3OC)c3ccc(O)cc3)c(O)cc2OC)cc1 (racemic) — 14-HDHA level (human blood; 0.3 µM, together with: A23187): 660 ± 170 pg/mL
Cc1cn(CC(=O)N(CC(=O)N[C@H]2COC[C@@H]2N(CC(=O)NCCOCCOCC(N)=O)C(=O)Cn2cnc3c(N)ncnc32)[C@H]2COC[C@@H]2NC(=O)CN(C(=O)Cn2cnc3c(N)ncnc32)[C@H]2COC[C@@H]2NC(=O)CN(C(=O)Cn2cnc3c(=O)[nH]c(N)nc32)[C@H]2COC[C@@H]2NC(=O)CN(C(=O)Cn2cc(C)c(=O)[nH]c2=O)[C@H]2COC[C@@H]2NC(=O)CN(C(=O)Cn2cnc3c(=O)[nH]c(N)nc32)[C@H]2COC[C@@H]2NC(=O)CN(C(=O)Cn2cc(C)c(=O)[nH]c2=O)[C@H]2COC[C@@H]2NC(=O)CN(C(=O)Cn2cnc3c(N)ncnc32)[C@H]2COC[C@@H]2NC(=O)CN(C(=O)Cn2cnc3c(=O)[nH]c(N)nc32)[C@H]2COC[C@@H]2N)c(=O)[nH]c1=O — Tm (UV melting; RNA duplex with T·G mismatch; pH 7.2, 1 µM each strand): 57.5 °C
CC(=O)[O-].O.O.[O-]c1ccc(Br)cc1C=NCCN1CCOCC1.[Zn+2] — inhibition (superoxide scavenging; 200 µM): 43.2%
CCc1cc(OCCOCCN(C)C)ccc1Cl — larval motion (zebrafish larvae, 7 dpf; 10 µM, minute 2): 9.7 ± 2.1 pixels/frame
Cc1cnc2nc1Nc1cccc(c1)COC/C=C/COCc1cc(ccc1OCCN1CCOCC1)N2 — CD71/Ter119 cells (BALB/c mice rhEPO-induced polycythemia, bone marrow; 75 mg/kg): 18.4% and 16.7% and 16.6% and 12.9% and 16.8% and 18.2%
Cc1ncsc1-c1ccc(C(C)NC(=O)C2CC(O)CN2C(=O)C(NC(=O)CCCCCCCCCCN2CCCC(Nc3ncc(Cl)c(Nc4ccccc4S(=O)(=O)C(C)C)n3)C2)C(C)(C)C)cc1 (stereo not drawn) — log2 fold change (22Rv1; RNA-seq, measured: WDR5B mRNA; concentration not given; reference: DMSO): -1.29
CC(C)C[C@H](NC(=O)CNC(=O)[C@H](CCC(N)=O)NC(=O)[C@H](CC(C)C)NC(=O)[C@H](CC(C)C)NC(=O)[C@H](CCCNC(=N)N)NC(=O)[C@H](CCC(N)=O)NC(=O)[C@H](CC(C)C)NC(=O)[C@H](CCCNC(=N)N)NC(=O)[C@H](C)NC(=O)CNC(=O)[C@H](CCC(=O)O)NC(=O)[C@H](CCCNC(=N)N)NC(=O)[C@H](CC(C)C)NC(=O)[C@H](CCCNC(=N)N)NC(=O)[C@H](CO)NC(=O)[C@H](CC(C)C)NC(=O)[C@H](CCC(=O)O)NC(=O)[C@H](CO)NC(=O)[C@@H](NC(=O)[C@H](Cc1ccccc1)NC(=O)[C@@H](NC(=O)CNC(=O)[C@H](CC(=O)O)NC(=O)C(C)(C)NC(=O)[C@@H](N)Cc1c[nH]cn1)[C@@H](C)O)[C@@H](C)O)C(=O)N[C@@H](CC(C)C)C(=O)N[C@@H](CCC(N)=O)C(=O)NCC(=O)N[C@@H](CC(C)C)C(=O)N[C@H](C(=O)NCC(=O)N[C@@H](CCCCNC(=O)COCCOCCNC(=O)COCCOCCNC(=O)CC[C@H](NC(=O)CCCCCCCCCCCCCCCCC(=O)O)C(=O)O)C(N)=O)C(C)C — food intake (DIO C57BL/6J mice; sc, 300 nmol/kg twice daily, 8 days): no effect
COC1CN([C@H]2CC[C@H]([C@@]3(C)Oc4c(Cl)cc(C(=O)NCc5c(SC)cc(C)[nH]c5=O)c(C)c4O3)CC2)C1 — log2 fold change (RNA-seq, measured: GAREM1; human, whole blood; dose not given, 24 h; reference: pretreatment baseline): 1.47
CNS(=O)(=O)Nc1nccc(Cc2c(C)c3ccc(Oc4ncccc4F)cc3oc2=O)c1F — IC50 (OS-RC-2; cell viability; 7 days): 945 nM
Cc1cc(OCCOCCN(C)C)cc(C(C)C)c1 — larval motion (locomotor activity in dark; zebrafish larvae, 7 dpf; 10 µM, minute 1, dark phase): 3.5 ± 1 pixels/frame
Cc1cn(CC(=O)N(CC(=O)N[C@H]2CCC[C@@H]2N(CC(=O)N[C@H]2COC[C@@H]2N(CC(=O)N[C@H]2COC[C@@H]2N(CC(=O)N[C@H]2COC[C@@H]2N(CC(=O)NCCOCCOCC(N)=O)C(=O)Cn2cnc3c(N)ncnc32)C(=O)Cn2cc(C)c(=O)[nH]c2=O)C(=O)Cn2cnc3c(N)ncnc32)C(=O)Cn2cnc3c(=O)[nH]c(N)nc32)[C@H]2CCC[C@@H]2NC(=O)CN(C(=O)Cn2cnc3c(=O)[nH]c(N)nc32)[C@H]2CCC[C@@H]2NC(=O)CN(C(=O)Cn2cc(C)c(=O)[nH]c2=O)[C@H]2COC[C@@H]2NC(=O)CN(C(=O)Cn2cnc3c(N)ncnc32)[C@H]2COC[C@@H]2NC(=O)CN(C(=O)Cn2cnc3c(=O)[nH]c(N)nc32)[C@H]2COC[C@@H]2N)c(=O)[nH]c1=O — Tm (UV melting; RNA duplex with T·C mismatch; pH 7.2, 1 µM each strand): 58.2 °C
O=C(CCN1CCN(C/C=C/c2ccccc2)CC1)Nc1ccc2c(c1)CCC2 — larval motion (locomotor activity in dark; zebrafish larvae, 7 dpf; 10 µM, minute 1, dark phase): 5 ± 0.9 pixels/frame
CCC(CC)n1c(Cc2ccco2)nc2cc(C(=O)N[C@@H](CC(=O)O)c3ccccc3)ccc21 — mRNA level (measured: hypertrophic markers ANP, BNP; mouse HFpEF model (high-fat diet plus L-NAME, 7 weeks); intraperitoneal, 20 mg/kg/day, 2 weeks): decreased
COc1cnc2cccc(N3CCc4c(cc(Cn5ccnc5)cc4-c4cn(C)nc4C(F)(F)F)C3=O)c2c1 — tumour volume (BALB/c nude mice, MV4-11 xenograft; intraperitoneal, 75 mg/kg, day 14): 160 mm3 and 178 mm3 and 184 mm3 and 180 mm3 and 177 mm3
CN1CCC[C@]1(C)/C=C/S(=O)(=O)NC(=O)Nc1c2c(cc3c1CCC3)CCC2 — IL-18 inhibition (human, whole blood ex vivo; 100 mg twice daily, day 14, 3 h, multiple ascending dose, together with: LPS and ATP): 97.6%
COc1ccc2cc3[n+](cc2c1OC)CCc1cc2c(cc1-3)OCO2.[Cl][Fe-]([Cl])([Cl])[Cl] — DPPH scavenging (1.0 mg/mL, 30 min, 25 °C): 46%
CN1CCCNC(=O)c2cccc(c2)C(=O)NCCCN(C)CCCNc2cccc3c2C(=O)c2cccc(c2C3=O)NCCC1 — tumour volume (SAS xenograft, KSN/Slc nude mice; dose not given, 96 h (day 4), group mean): 160 mm3
CN(C)CCOCCOc1ccc(Cl)c(Cl)c1 — larval motion (locomotor activity in dark; zebrafish larvae, 7 dpf; 10 µM, minute 7, dark phase): 1.5 ± 0.7 pixels/frame
COc1ccccc1-c1ccncc1C(=O)Nc1nnc(OCc2ccc(Cl)cc2)s1 — colony survival (Brca1 Δ11/Δ11 Polq-/- MEFs, Mus musculus; 5 µM, average of runs; reference: 0 µM): 86.3%
C[C@@H]1CN(c2ccnc(C(=O)N[C@H]3C[C@@H]3c3ccccc3)c2)CC[C@@H]1O — creatine concentration (female heterozygous Slc6a8 P549L mice, brain; oral, 30 mg/kg once daily): 1040 µg/mL and 1170 µg/mL and 1070 µg/mL
CN(C)C(=O)c1ccnc(N2Cc3cn(Cc4ccc(F)cc4F)nc3C2)n1 — paired-pulse ratio (mouse, hippocampal slice, Schaffer collaterals; dose not given, interstimulus interval 1000; reference: second over first response): 1.11 and 1.28 and 1.08 and 1.1 and 1.03 and 1.14 and 1.23 and 1.02
Cc1ccc(C)c(OCC(O)CN2CCN(c3cc(Cl)ccc3C)CC2)c1 (stereo not drawn) — larval motion (zebrafish larvae, 7 dpf; 10 µM, minute 4): 1.2 ± 0.4 pixels/frame
COc1cc(O)ccc1CCC(c1ccc(O)cc1)c1cc2c(c(C)c1O)OC(c1ccc(O)cc1)CC2 (mixture of isomers) — amount (measured: docosahexaenoic acid; human whole blood; 30 µM, together with: Escherichia coli): 31700 ± 4180 pg/mL blood
Cc1cn(CC(=O)N(CCNC(=O)CN(CCNC(=O)CN(CCNC(=O)CN(CCNC(=O)CN(CCNC(=O)CN(CCNC(=O)CN(CCNC(=O)CN(CCN)C(=O)Cn2cnc3c(=O)[nH]c(N)nc32)C(=O)Cn2cnc3c(N)ncnc32)C(=O)Cn2cc(C)c(=O)[nH]c2=O)C(=O)Cn2cnc3c(=O)[nH]c(N)nc32)C(=O)Cn2cc(C)c(=O)[nH]c2=O)C(=O)Cn2cnc3c(=O)[nH]c(N)nc32)C(=O)Cn2cnc3c(N)ncnc32)CC(=O)NCCN(CC(=O)NCCOCCOCC(N)=O)C(=O)Cn2cnc3c(N)ncnc32)c(=O)[nH]c1=O — Tm (UV melting; RNA duplex with T·G mismatch; pH 7.2, 1 µM each strand): 35.3 °C
O=C(CCN1CCN(C/C=C/c2ccccc2)CC1)Nc1ccccc1 — larval motion (zebrafish larvae, 7 dpf; 10 µM, minute 6): 11.2 ± 1.6 pixels/frame
CC1(C)CC[C@@]2(CO)C(=C3C=C[C@@H]4[C@@]5(C)CC[C@H](O)[C@@](C)(CO)[C@@H]5CC[C@@]4(C)[C@]3(C)C[C@@H]2O)C1 — steatosis area (H&E staining; Mus musculus, chronic-plus-binge ethanol, liver; dose not given): 0.454% and 0.435% and 0.468% and 0.429% and 0.451% and 0.418%
Cc1cc(NC(=O)CCN2CCCCC2)ccc1Br — larval motion (zebrafish larvae, 7 dpf; 10 µM, minute 4): 17.5 ± 1.7 pixels/frame
COc1ccc2c(c1)c(CC(=O)[O-])c(C)n2C(=O)c1ccc(Cl)cc1.COc1ccc2c(c1)c(CC(=O)[O-])c(C)n2C(=O)c1ccc(Cl)cc1.[Co+2].c1c[nH]cn1.c1c[nH]cn1 — DPPH radical scavenging (DPPH; methanol; concentration not given, 60 min): 21.7 ± 0.67%
N[C@@H](CNC(=O)N[C@@H](CS)C(=O)NCC(=O)O)C(=O)O — TNF-α level (ELISA; mouse C57BL/6, Aβ i.c.v. model, brain lysate; intranasal, dose not given): 22.1 ± 1.2 pg/mg protein
CCCCCc1ccc(S(=O)(=O)N2CC2C(=O)OC)cc1 (stereo not drawn) — tumour growth inhibition (mouse, Lewis lung carcinoma; intraperitoneal, 5 mg/kg, 16 doses, day 15): 67%
Cc1cc(OCCOCCn2ccnc2)cc(C(C)C)c1 — larval motion (zebrafish larvae, 7 dpf; 10 µM, minute 6): 7.7 ± 1.2 pixels/frame
CC(C)c1cnc(-c2cc(Cl)ccc2F)cc1Nc1ccncc1C(=O)NC(CO)CO — monocytic MDSC (mice, MC-38 tumour, tumour; 10 mg/kg twice daily, 96 h, 4 day, then holiday, ×7; reference: CD45+): 12.4%

For quick reference, copied from above:
CC1(C)CC[C@@]2(CO)C(=C3C=C[C@@H]4[C@@]5(C)CC[C@H](O)[C@@](C)(CO)[C@@H]5CC[C@@]4(C)[C@]3(C)C[C@@H]2O)C1 — steatosis area (H&E staining; Mus musculus, chronic-plus-binge ethanol, liver; dose not given): 0.454% and 0.435% and 0.468% and 0.429% and 0.451% and 0.418%
Cc1cc(NC(=O)CCN2CCCCC2)ccc1Br — larval motion (zebrafish larvae, 7 dpf; 10 µM, minute 4): 17.5 ± 1.7 pixels/frame
